Measurements gathered from unrelated publications.
Compare with care: the assays were run in different laboratories. Several values in a cell are separate wells, animals, samples, runs or records. ± marks the error that the study gave.

With `CSCCNc1nc(SCCC(F)(F)F)nc2c1ncn2[C@@H]1O[C@H](COP(=O)(O)OP(=O)(O)C(Cl)(Cl)P(=O)(O)O)[C@@H](O)[C@H]1O` the inhibition was 32.6 ± 19.6% (ADP-induced platelet aggregation, LTA; human patients, platelet-rich plasma; dose not given, 1 h, added: ADP 20 µM).
For `CN(C(=O)n1cnc(-c2ccc[n+]([O-])c2)c1)C1CCCCC1`, the AUC(0-tau) was 139 ng·h/mL (refers to: PEA; human, plasma; 2.5 mg once daily, day 10).
`COc1ccc(F)cc1C(=O)NCc1ccc(-c2nn([C@@H](C)C(F)(F)F)c(N)c2C(N)=O)cc1` — result for “overall response rate”: 64% (CLL/SLL patients; dose not given, prior BTK and BCL2 inhibitors).
Under “percent change from baseline”, `C[C@H]1C[C@H]2CSC(N)=N[C@@]2(c2nc(NC(=O)c3ccc(OC(F)F)cn3)cs2)CO1` is recorded as -56.5% (refers to: Aβx-40; healthy adults, plasma; 160 mg single dose, 48 h post-dose; reference: placebo).
`COc1ccc(-c2cncc(N[C@@H](C)c3cccc(NC(=O)c4cncc(C)c4)c3)n2)cc1OC`: “delta delta Ct” 0.856 (refers to: rno-miR-143-3p; rat SU5416/hypoxia model, lung; dose not given, unit not given; reference: SU5416/hypoxia vehicle).
`C[C@H]1O[C@@H](O[C@H]2CC[C@@]3(C)[C@@H](CC[C@]4(C)[C@@H]3C=C[C@]35OC[C@@]6(CCC(C)(C)C[C@H]63)[C@@H](O)C[C@]54C)[C@]2(C)CO)[C@H](O)[C@@H](O[C@@H]2O[C@H](CO)[C@@H](O)[C@H](O)[C@H]2O)[C@H]1O` has a mRNA level of 0.935 fold change and 0.895 fold change and 1.52 fold change (qRT-PCR, refers to: SIRT1; mice, normal diet, liver; dose not given, high dose; reference: control mice).
For `OC(CCN1CCCCC1)(c1ccccc1)C1CC2C=CC1C2` (stereo not drawn), “EEG Beta3-power Fz-Cz” read 1.9 µV² (resting-state EEG; healthy elderly humans; oral, 2 mg, eyes closed, LS mean).
The sarcomere length of `O=C(O)CNC(=O)Cc1ccccc1` is reported as 1.72 µm (ventricular cardiomyocytes, C57BL/6 mouse; dose not given, 0.016 s).
`N#Cc1ccn2c(-c3ccncc3)c(-c3ccc(F)cc3)nc2c1`: “log2 fold change” -0.17 (kinase binding, competitor, MIB/MS competition, refers to: PKH2; Candida albicans cell lysate; 1 µM; reference: DMSO).
`COc1cc2cc(-c3ccc(CC(=O)Nc4cc(C(C)(C)C(F)(F)F)no4)cn3)cnc2cc1OC`: “progressive disease as best response” 38% (RECIST v1.1; RET-altered advanced solid tumour patients; oral, 150 mg once daily, phase I).
The sarcomere length of `CC(C)NCC(O)c1ccc(O)c(O)c1` (stereo not drawn) is reported as 1.72 µm (ventricular cardiomyocytes, C57BL/6 mouse; dose not given, 0.356 s).
With `CC#Cc1cncc(-c2ccc3c(c2)[C@@]2(N=C(C)C(N)=N2)[C@]2(CC[C@H](OC)CC2)C3)c1` the IC50 was 3.8 nM (CSF Aβ40 reduction; beagle dog; oral, CSF concentration basis).
`O=C1N(Cc2ccccc2Cl)c2ccccc2C12NN=C(c1ccccc1)S2` (stereo not drawn) gave a T/C of 85% (AB12 tumour, mouse; intravenous, 405.4 mg/kg total, subcutaneous tumour; reference: vehicle).
Under “CHAC1 mRNA change”, `O=C(COc1ccc(Cl)cc1)NC12CC(c3nnc([C@H]4C[C@@H](OC(F)(F)F)C4)o3)(C1)C2` is recorded as 12.3% (healthy human, PBMC; oral, 15 mg single dose, day 1, 4 h post-dose, median, added: sodium arsenite ex vivo; reference: baseline).
`CC(C)C[C@@H](NC(=O)[C@H](C)NC(=O)CNC(=O)[C@@H](NC=O)C(C)C)C(=O)N[C@@H](C)C(=O)N[C@@H](C(=O)N[C@H](C(=O)N[C@@H](C(=O)N[C@@H](Cc1c[nH]c2ccccc12)C(=O)N[C@H](CC(C)C)C(=O)N[C@@H](Cc1c[nH]c2ccccc12)C(=O)N[C@H](CC(C)C)C(=O)N[C@@H](Cc1c[nH]c2ccccc12)C(=O)N[C@@H](C(=O)N[C@@H](Cc1c[nH]c2ccccc12)C(=O)NCCO)C(C)C)[C@H](C)O)C(C)C)C(C)C` gave an EC50 of 1.83 ± 1.08 nM (H+/Na+ transport, pyranine pH-gradient; EYPC/EYPG LUVs 19:1).
Under “tumour growth inhibition”, `C=CCn1c(=O)c2cnc(Nc3ccc(N4CCN(C)CC4)cc3)nc2n1-c1ccc2c(n1)[C@@](O)(CC)CC2` is recorded as 40% (SW-403 xenograft, BALB/c nude mice; oral, 80 mg/kg once daily x 28, day 27; reference: vehicle).
`N=C(N)NCCC[C@@H](N)C(=O)N[C@@H](CCCNC(=N)N)C(=O)N1CCC[C@H]1C(=O)N1C[C@H](O)C[C@H]1C(=O)NCC(=O)N[C@@H](Cc1cccs1)C(=O)N[C@@H](CO)C(=O)N1Cc2ccccc2C[C@@H]1C(=O)N1[C@H](C(=O)N[C@@H](CCCNC(=N)N)C(=O)O)C[C@@H]2CCCC[C@@H]21`: “time to symptom relief” 1 h (pediatric hereditary angioedema patients; subcutaneous, 0.4 mg/kg, up to 30 mg, median; lower = faster relief).
Under “systolic blood pressure change”, `N#Cc1ccc2c(c1)[C@H]1CCCN(C(=O)c3ccc4[nH]cnc4c3)[C@H]1C2` is recorded as -4.1 mmHg (human clinical trial; oral, 240 mg once daily, 28 d; reference: placebo).

A few entries again:
Under “tumour growth inhibition”, `C=CCn1c(=O)c2cnc(Nc3ccc(N4CCN(C)CC4)cc3)nc2n1-c1ccc2c(n1)[C@@](O)(CC)CC2` is recorded as 40% (SW-403 xenograft, BALB/c nude mice; oral, 80 mg/kg once daily x 28, day 27; reference: vehicle).
